Results gathered from unrelated publications.
Numbered parts are unrelated; each lists some results of a single study.
UniProt Q02763, sequence (whole entry, looked up): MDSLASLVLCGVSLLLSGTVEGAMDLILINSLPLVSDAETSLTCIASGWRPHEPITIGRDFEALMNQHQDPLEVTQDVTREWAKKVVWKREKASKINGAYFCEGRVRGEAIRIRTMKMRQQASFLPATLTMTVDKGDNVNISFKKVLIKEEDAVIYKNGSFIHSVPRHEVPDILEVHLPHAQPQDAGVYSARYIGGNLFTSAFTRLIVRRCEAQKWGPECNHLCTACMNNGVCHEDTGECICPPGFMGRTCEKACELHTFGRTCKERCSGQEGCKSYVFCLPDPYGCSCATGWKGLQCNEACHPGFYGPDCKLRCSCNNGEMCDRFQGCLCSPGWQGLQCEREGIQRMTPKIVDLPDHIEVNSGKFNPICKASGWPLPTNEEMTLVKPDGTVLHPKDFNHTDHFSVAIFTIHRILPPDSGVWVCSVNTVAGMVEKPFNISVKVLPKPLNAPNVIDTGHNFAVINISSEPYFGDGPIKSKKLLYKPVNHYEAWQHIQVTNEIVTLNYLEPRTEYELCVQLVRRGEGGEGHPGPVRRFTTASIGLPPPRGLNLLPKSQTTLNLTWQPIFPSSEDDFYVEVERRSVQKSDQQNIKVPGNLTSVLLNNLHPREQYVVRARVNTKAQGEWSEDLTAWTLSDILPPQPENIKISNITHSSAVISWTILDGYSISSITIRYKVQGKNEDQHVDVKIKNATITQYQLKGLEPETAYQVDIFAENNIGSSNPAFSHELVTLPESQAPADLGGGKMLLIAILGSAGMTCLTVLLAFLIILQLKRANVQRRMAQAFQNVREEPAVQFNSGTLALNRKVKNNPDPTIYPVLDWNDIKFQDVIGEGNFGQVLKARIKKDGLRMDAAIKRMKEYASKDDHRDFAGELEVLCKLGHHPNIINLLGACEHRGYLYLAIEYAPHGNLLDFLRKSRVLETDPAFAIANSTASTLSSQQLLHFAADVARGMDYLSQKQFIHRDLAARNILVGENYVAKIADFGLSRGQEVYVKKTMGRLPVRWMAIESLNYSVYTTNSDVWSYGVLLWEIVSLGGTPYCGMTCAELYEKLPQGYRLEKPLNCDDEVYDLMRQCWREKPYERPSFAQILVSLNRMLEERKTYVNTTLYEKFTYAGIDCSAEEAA
UniProt P78368, sequence (whole entry, looked up): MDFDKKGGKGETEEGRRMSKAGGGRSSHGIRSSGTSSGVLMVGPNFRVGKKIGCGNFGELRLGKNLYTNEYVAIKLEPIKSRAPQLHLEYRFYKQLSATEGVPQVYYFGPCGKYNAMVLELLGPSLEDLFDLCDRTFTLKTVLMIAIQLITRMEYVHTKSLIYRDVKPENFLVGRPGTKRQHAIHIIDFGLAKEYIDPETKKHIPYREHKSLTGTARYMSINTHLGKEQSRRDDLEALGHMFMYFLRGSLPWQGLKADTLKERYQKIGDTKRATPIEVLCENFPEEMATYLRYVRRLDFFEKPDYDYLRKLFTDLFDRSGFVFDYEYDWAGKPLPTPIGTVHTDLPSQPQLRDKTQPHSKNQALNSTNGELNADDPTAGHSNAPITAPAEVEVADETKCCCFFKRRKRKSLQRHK
UniProt P36896, sequence (whole entry, looked up): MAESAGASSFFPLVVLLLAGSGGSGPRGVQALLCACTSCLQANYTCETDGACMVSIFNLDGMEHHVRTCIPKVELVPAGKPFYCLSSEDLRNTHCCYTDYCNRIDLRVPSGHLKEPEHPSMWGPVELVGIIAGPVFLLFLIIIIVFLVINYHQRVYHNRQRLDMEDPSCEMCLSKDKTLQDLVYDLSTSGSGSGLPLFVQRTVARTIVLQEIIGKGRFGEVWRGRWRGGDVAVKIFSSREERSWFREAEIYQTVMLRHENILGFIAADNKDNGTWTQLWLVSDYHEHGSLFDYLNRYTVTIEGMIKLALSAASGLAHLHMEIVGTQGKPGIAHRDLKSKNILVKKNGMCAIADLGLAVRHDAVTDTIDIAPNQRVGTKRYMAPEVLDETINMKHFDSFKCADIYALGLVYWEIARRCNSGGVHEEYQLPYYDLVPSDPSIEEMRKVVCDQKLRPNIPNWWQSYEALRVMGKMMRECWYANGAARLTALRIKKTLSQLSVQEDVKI
UniProt P42685, sequence (whole entry, looked up): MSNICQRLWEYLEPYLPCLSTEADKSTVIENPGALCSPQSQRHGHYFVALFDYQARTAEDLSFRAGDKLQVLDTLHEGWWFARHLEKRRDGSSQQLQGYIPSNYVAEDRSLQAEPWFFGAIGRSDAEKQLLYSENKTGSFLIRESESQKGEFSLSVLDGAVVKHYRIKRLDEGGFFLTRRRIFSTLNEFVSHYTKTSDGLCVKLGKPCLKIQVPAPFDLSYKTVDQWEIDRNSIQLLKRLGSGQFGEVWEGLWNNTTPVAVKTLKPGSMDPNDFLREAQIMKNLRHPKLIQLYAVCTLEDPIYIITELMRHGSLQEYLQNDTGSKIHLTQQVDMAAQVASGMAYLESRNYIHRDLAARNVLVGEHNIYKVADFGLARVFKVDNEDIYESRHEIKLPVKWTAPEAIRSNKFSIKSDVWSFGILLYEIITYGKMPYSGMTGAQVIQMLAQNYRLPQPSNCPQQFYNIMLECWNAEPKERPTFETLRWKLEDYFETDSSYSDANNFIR
UniProt P06239, sequence (whole entry, looked up): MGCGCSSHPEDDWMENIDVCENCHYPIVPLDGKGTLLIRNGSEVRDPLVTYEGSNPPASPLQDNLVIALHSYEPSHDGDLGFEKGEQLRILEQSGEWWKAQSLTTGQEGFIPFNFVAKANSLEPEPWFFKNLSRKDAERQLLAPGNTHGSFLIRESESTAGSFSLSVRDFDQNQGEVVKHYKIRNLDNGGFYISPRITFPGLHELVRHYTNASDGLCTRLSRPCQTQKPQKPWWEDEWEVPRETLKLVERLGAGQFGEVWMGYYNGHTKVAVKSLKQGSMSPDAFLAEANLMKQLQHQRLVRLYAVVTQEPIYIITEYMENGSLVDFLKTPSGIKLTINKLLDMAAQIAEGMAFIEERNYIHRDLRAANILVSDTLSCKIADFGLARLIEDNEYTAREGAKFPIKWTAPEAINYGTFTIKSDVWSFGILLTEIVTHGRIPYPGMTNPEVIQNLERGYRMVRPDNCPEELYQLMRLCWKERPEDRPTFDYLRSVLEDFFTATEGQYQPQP
UniProt Q15349, sequence (whole entry, looked up): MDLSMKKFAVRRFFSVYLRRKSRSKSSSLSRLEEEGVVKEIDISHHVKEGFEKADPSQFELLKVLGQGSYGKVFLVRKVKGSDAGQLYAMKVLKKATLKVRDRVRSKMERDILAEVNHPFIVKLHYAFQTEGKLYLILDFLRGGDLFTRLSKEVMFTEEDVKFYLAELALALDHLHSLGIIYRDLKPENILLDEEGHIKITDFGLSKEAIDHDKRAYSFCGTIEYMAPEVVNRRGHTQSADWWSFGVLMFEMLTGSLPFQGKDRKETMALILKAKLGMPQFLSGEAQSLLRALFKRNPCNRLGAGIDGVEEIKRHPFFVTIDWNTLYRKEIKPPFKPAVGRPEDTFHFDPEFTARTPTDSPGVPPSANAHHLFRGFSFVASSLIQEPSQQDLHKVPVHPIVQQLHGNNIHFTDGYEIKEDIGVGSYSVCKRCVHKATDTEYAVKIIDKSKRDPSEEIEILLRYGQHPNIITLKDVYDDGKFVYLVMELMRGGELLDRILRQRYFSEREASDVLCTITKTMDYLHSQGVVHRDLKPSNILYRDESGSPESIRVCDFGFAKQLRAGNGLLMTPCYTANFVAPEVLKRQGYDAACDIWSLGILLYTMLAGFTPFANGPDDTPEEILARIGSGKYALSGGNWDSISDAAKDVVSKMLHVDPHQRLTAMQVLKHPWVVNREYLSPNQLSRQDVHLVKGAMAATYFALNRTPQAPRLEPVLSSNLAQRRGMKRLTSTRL

Study 1 — effect on: radioligand binding; technique: radioligand displacement; tested at: 10 µM
Target: Translocator protein (Tspo, Rattus norvegicus, UniProt P16257)
UniProt P16257, sequence (whole entry, looked up): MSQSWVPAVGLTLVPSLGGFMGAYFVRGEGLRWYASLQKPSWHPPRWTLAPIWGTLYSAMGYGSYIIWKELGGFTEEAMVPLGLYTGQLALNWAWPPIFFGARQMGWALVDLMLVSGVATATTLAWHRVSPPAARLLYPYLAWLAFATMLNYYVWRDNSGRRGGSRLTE
Compound | inhibition
N#CN1CC[C@H](C(=O)Nc2nc3c(s2)CN(C(=O)CN=[N+]=[N-])CC3)C1 | 21.9%
CO[C@@H](C)c1c(Nc2ccc([C@H](N(C)C(=O)C3CCS(=O)(=O)CC3)C(F)(F)F)cc2)cnc2cc(Cl)nn12 | 11.6%
COc1cccc(CNC(=O)c2nc3scc(COCc4ccc(C(=O)O)cc4)c3c(=O)[nH]2)c1 | 3.29%
COc1ccc2c(c1)O[C@@H](c1ccc(OC)c(OC)c1)C[C@H]2NC(=O)C1(c2ccc3c(c2)OC(F)(F)O3)CC1 (single isomer, unassigned) | 90.5%
CC(=O)c1c(NS(C)(=O)=O)c2cc(-c3ccc(Cl)cc3)c(-c3ccc(Cl)cc3Cl)nc2n(C)c1=O | 36.9%

Study 2 — technique: EMSA with sequencing; molecule type: double-stranded DNA, one strand shown; matrix: in vitro; tested at: 10 and 20 nM; relative to: negative control set to 0; reading: higher = stronger binding
Target: Hepatocyte nuclear factor 3-alpha (Foxa1, Mus musculus, UniProt P35582, residues 1-468, full length assumed)
UniProt P35582, sequence (whole entry, looked up): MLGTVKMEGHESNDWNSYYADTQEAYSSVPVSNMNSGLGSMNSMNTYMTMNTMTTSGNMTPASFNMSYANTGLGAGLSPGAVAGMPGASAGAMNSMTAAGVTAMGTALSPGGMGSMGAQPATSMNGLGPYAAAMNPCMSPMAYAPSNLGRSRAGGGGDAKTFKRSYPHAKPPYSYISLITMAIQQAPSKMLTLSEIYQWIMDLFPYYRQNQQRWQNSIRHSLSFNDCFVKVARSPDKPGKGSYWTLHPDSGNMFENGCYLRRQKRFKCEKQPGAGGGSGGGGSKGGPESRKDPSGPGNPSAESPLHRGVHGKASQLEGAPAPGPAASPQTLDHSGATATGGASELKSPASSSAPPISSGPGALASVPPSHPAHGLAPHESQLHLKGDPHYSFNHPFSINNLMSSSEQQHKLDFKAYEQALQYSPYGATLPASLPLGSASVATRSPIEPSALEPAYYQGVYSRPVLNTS
Notes: whole designed probe, mean of two concentrations, ends assumed
All sequences stand within: GTGAGCGGTGCCCATTGATGGGGAAC … TTTCACTGGGATCGTGGGGAC
Oligonucleotide | normalised bound fraction
ATCTTCCCCCTCTTCCTTGCCCCACCAGCTCACCTACGGGGGTTATTTGCACAAAGGAAAATAAATAAAGCCGGCATTCGTTAACCCTCTTCACGCGCATACTGCTGTTTGCTCTGCATCTAACATGGTCCTTACGCGACGCCAGGCTCCGGGAGAGCAAAGCACCGTGTCAGGCGCATGATCCGGGGTGGCC | 0.389 ratio
TCCACAGTAGAAACGAAGGAGATGACAGATACCCCGGCACCAAAACTGACACCAGGTTTTTGTTGCTTCTTCCACTATATAATGGAGAAGTTCTGTTTACTCTATACTGTTAACATTGGCGTTGTGCAACTTAAGGAAACCCAAGAAACTGAATCACATCAAAGGTATGTCAGAGGTATGTGAACCAGAGCAA | 0.352 ratio
GAAAATATTTATAGTTTCTCTAGGTTGTCAAGAATTGAATTCCTTTTAAATGTAGGCGATGTCATTTTATTTTCTTAGATTACTTTGAACTTAAGATTACTCTTAATGAGGTAAATTACTTTTCCTACTTGAATTCAGAATGGAAACCATCTGTGACAGGGTTTATATTAACATGACTTTACTATCCACCTGT | -0.0211 ratio
AATTATAAATATATAATTATAAATTTATATAAAAATATGTAATTATAAATATGTAATTATATCTAATAGGGTATATTATTTTTTCTAAAACAAAGTAAACATACAAATGAGAGATTAAACAAATTAGCATAACATAAATTTATCTGCTCTAAAGCTGGGAAAAGATGTGAAAGAAATTATTTTTGTCTTTAAA | 0.412 ratio
TTTATCACAGGACAATGAATATATACCTCAAAATAAAAGATGTAGAATACTGTATTTACATAATTTGGTTAAACAAAACAATACATGACTATGTAAACACGGCTGAGCAGCACATACCTCCTAGTGCTTTTTTTTAAATGTCAAACAGTCATAATTTTTAATCTCCTTTCTTGAGGGTGTCAAAAAAATCTTT | 0.485 ratio

Study 3 — effect on: enzyme activity; mode: inhibitor; tested at: 0.5 µM; relative to: control
Compound: O=C1NC(=O)C(c2c[nH]c3ccccc23)=C1c1c[nH]c2ccccc12
target | remaining activity
Serine/threonine-protein kinase Nek1 (NEK1, Homo sapiens, UniProt Q96PY6) | 93.8%
Tyrosine-protein kinase Lck (LCK, Homo sapiens, UniProt P06239) | 85.1%
Tyrosine-protein kinase FRK (FRK, Homo sapiens, UniProt P42685) | 88.2%
Macrophage-stimulating protein receptor (MST1R, Homo sapiens, UniProt Q04912) | 93.1%
Serine/threonine-protein kinase A-Raf (ARAF, Homo sapiens, UniProt P10398) | 155%
Serine/threonine-protein kinase ULK2 (ULK2, Homo sapiens, UniProt Q8IYT8) | 92.9%
Angiopoietin-1 receptor (TEK, Homo sapiens, UniProt Q02763) | 101%
Serine/threonine-protein kinase TAO2 (TAOK2, Homo sapiens, UniProt Q9UL54) | 102%
Activin receptor type-1B (ACVR1B, Homo sapiens, UniProt P36896) | 112%
Fibroblast growth factor receptor 1 (FGFR1, Homo sapiens, UniProt P11362) | 41.4%
Ribosomal protein S6 kinase alpha-2 (RPS6KA2, Homo sapiens, UniProt Q15349) | 11.5%
Mitogen-activated protein kinase kinase kinase 5 (MAP3K5, Homo sapiens, UniProt Q99683) | 106%
Casein kinase I isoform gamma-2 (CSNK1G2, Homo sapiens, UniProt P78368) | 92%

Study 4 — technique: universal PBM; molecule type: double-stranded DNA, one strand shown; matrix: in vitro; tested at: not given; reading: higher = stronger binding
Target: Sal-like protein 4, full length isoform B (SALL4, Homo sapiens, UniProt Q9UJQ4-2, residues 1-616)
Notes: 8-mer, flanks averaged, mean of replicates
Target sequence (chain): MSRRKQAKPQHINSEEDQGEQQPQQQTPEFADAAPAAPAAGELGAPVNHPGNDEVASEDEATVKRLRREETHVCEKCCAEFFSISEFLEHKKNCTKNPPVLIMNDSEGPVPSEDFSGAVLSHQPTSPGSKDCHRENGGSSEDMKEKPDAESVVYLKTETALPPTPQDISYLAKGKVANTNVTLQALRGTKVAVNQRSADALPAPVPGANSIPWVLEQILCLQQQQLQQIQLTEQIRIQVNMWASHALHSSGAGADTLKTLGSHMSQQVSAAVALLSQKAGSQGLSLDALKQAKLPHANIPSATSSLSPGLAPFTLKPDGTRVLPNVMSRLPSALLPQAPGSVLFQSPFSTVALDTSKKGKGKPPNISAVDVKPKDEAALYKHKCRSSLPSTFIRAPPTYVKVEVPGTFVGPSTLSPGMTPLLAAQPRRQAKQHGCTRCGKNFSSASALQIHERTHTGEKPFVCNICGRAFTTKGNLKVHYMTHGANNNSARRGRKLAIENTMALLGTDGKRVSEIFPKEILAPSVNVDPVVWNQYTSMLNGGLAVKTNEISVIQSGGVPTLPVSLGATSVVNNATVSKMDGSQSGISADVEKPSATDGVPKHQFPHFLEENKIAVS
Oligonucleotide | E-score
CTCTTTGC | 0.0338
ATTGGTGA | 0.198
GGGATGAA | -0.116
AGTCATAA | 0.35
CGGCCCGA | -0.373
GAACAACC | 0.0845
ACCCCTAC | -0.118
CCGGTCCA | -0.435

Some of these lines once more (study 4):
Oligonucleotide | E-score
CCGGTCCA | -0.435
GGGATGAA | -0.116
AGTCATAA | 0.35
